Results collected from several papers.
Compare with care: the assays were run in different laboratories. “And” joins repeats or separate records; there may be more than shown.
Cell line: HaCaT

| Compound | assay | conditions | scale | quantity | value |
| --- | --- | --- | --- | --- | --- |
| CC(C)C[C@H](NC(=O)[C@H](CC(N)=O)NC(=O)[C@H](CCCNC(=N)N)NC(=O)[C@@H](CC(C)C)NC(=O)[C@H](Cc1ccc(-c2ccccc2)cc1)NC(=O)[C@H](CC(=O)O)NC(=O)[C@H](CCCNC(=N)N)NC(=O)[C@@H](CC(C)C)NC(=O)[C@H](CCCCN)NC(=O)[C@H](CCC(N)=O)NC(=O)[C@@H](NC(=O)[C@@H](CC(C)C)NC(=O)[C@H](CCCCN)NC(=O)[C@H](CCCNC(=N)N)NC(=O)[C@H](Cc1ccc(-c2ccccc2)cc1)NC(=O)CN)C(C)C)C(=O)N[C@H](C(N)=O)C(C)C | cell viability, MTS | 1 h, 37 °C, 10% FBS | – | LC50 | 30 µM |
| CC[C@H](C)[C@H](NC(=O)[C@H](C)NC(=O)[C@H](CCCCN)NC(=O)[C@H](CCCCN)NC(=O)[C@@H](N)CCCNC(=N)N)C(=O)N[C@@H](CCCCN)C(=O)N[C@@H](CC(C)C)C(=O)N[C@H](C(=O)N[C@@H](CCCCN)C(=O)N[C@@H](CCCCN)C(=O)N[C@@H](CC(C)C)C(=O)N[C@H](C(=O)N[C@@H](CCCCN)C(=O)N[C@@H](CCCCN)C(=O)N[C@@H](CC(C)C)C(=O)N[C@@H](CCCCN)C(=O)N[C@@H](CCCCN)C(=O)N[C@@H](C)C(=O)N[C@@H](CC(C)C)C(=O)N[C@@H](CCCCN)C(=O)O)C(C)C)C(C)C | MTT | 16 mg/L | relative to: untreated | cell growth | 79.7% and 86.7% and 68.9% and 88.4% and 81.8% |
| CC[C@H](C)[C@@H]1NC(=O)[C@@H](CCCNC(=N)N)NC(=O)[C@@H](NC(=O)[C@@H](CC(C)C)NC(=O)[C@H](C)NC(=O)[C@H](C)NC(=O)[C@@H]2CCCN2C(=O)[C@@H](CC(C)C)NC(=O)[C@@H](NC(=O)[C@@H](CCCNC(=N)N)NC(=O)[C@@H](CC(C)C)NC(=O)[C@@H](CC(C)C)NC(=O)[C@@H](NC(=O)[C@@H](CCCNC(=N)N)NC(=O)[C@@H](CC(C)C)NC(=O)[C@@H](NC(=O)[C@@H](NC(=O)CNC(=O)[C@@H](CC(C)C)NC(=O)[C@@H](N)Cc2ccccc2)[C@@H](C)O)C(C)C)C(C)C)C(C)C)CSSC[C@@H](C(=O)O)NC(=O)[C@@H](CCCNC(=N)N)NC(=O)[C@@H](CCCNC(=N)N)NC(=O)[C@H](Cc2ccccc2)NC1=O | cytotoxicity, MTT | 20 h | – | IC50 | 40 µM |
| CC(=O)Oc1ccc(/C=C/C(=O)Oc2cc(C(F)(F)F)ccc2C(F)(F)F)cc1OC(C)=O | cell growth or viability, MTT | 24 h | – | CC50 | 150 µM |
| CC[C@H](C)[C@H](N)C(=O)NCC(=O)NCC(=O)N[C@@H](CCCCN)C(=O)N[C@@H](CC(N)=O)C(=O)NCC(=O)NCC(=O)N[C@@H](Cc1c[nH]c2ccccc12)C(=O)N[C@@H](Cc1c[nH]c2ccccc12)C(=O)NCC(=O)N[C@@H](CCCCN)C(=O)N[C@H](C(=O)N[C@@H](CCCNC(=N)N)C(=O)N[C@@H](Cc1c[nH]c2ccccc12)C(=O)NCC(=O)N[C@@H](CC(C)C)C(=O)N[C@@H](CC(C)C)C(=O)N[C@@H](CO)C(=O)N[C@@H](CC(C)C)C(=O)N[C@H](C(=O)N[C@@H](CCCCN)C(=O)NCC(=O)N[C@H](C(=O)N[C@@H](C)C(=O)NCC(=O)N[C@@H](CCC(N)=O)C(=O)N[C@@H](CCCNC(=N)N)C(=O)N[C@@H](CC(C)C)C(=O)N[C@@H](CC(C)C)C(=O)O)[C@@H](C)CC)[C@@H](C)CC)C(C)C | cytotoxicity, MTT | 24 h, 37 °C | – | IC50 | 7.16 µM |
| COc1cc(/C=C/C(=O)Oc2cc(C(F)(F)F)cc(C(F)(F)F)c2)ccc1OC(C)=O | cell growth or viability, MTT | 24 h | – | CC50 | 76.2 µM |
| CC[C@H](C)[C@H](NC(=O)CNC(=O)[C@H](CC(C)C)NC(=O)[C@@H](NC(=O)CNC(=O)[C@H](CC(C)C)NC(=O)[C@H](CCC(N)=O)NC(=O)[C@@H](NC(=O)[C@H](CO)NC(=O)[C@H](C)NC(=O)[C@H](CCCCN)NC(=O)[C@H](CCCNC(=N)N)NC(=O)[C@H](CC(C)C)NC(=O)CNC(=O)[C@H](CCC(N)=O)NC(=O)[C@H](CC(C)C)NC(=O)[C@H](CC(C)C)NC(=O)[C@H](CCC(=O)O)NC(=O)CNC(=O)[C@H](CCCNC(=N)N)NC(=O)[C@@H](NC(=O)[C@H](CCCCN)NC(=O)[C@H](Cc1ccccc1)NC(=O)[C@H](CCCCN)NC(=O)[C@H](CCCCN)NC(=O)[C@H](CO)NC(=O)[C@H](CCCCN)NC(=O)[C@H](CC(C)C)NC(=O)[C@H](CC(C)C)NC(=O)[C@H](CCCCN)NC(=O)[C@H](CCCCN)NC(=O)[C@@H](NC(=O)[C@@H](NC(=O)[C@H](CCCCN)NC(=O)CNC(=O)[C@H](CC(C)C)NC(=O)[C@H](CCCCN)NC(=O)[C@H](C)N)[C@@H](C)O)[C@@H](C)CC)[C@@H](C)CC)C(C)C)[C@@H](C)O)C(=O)N[C@@H](CC(C)C)C(=O)O | cytotoxicity, MTT | 24 h, 37 °C | – | IC50 | 29.4 µM |
| CC[C@H](C)[C@H](NC(=O)[C@H](C)NC(=O)[C@H](CCCCN)NC(=O)[C@H](CC(C)C)NC(=O)[C@@H](N)Cc1ccccc1)C(=O)N[C@@H](CCCCN)C(=O)N[C@@H](CCCCN)C(=O)N[C@@H](Cc1ccccc1)C(=O)NCC(=O)N[C@@H](CCCCN)C(=O)N[C@@H](CCC(=O)O)C(=O)N[C@@H](Cc1ccccc1)C(=O)N[C@@H](CCCCN)C(=O)N[C@@H](CCCCN)C(=O)N[C@H](C(=O)NCC(=O)N[C@@H](C)C(=O)N[C@@H](CCCCN)C(=O)N[C@@H](CC(C)C)C(=O)N[C@@H](CCCCN)C(=O)O)[C@@H](C)CC | MTT | 64 mg/L | relative to: untreated | cell growth | 75.6% and 84.6% and 89.1% and 91% and 86% |
| COc1cc(/C=C/C(=O)Oc2cc(C(F)(F)F)ccc2C(F)(F)F)ccc1OC(C)=O | cell growth or viability, MTT | 24 h | – | CC50 | 66.7 µM |
| Cc1ccc(NS(=O)(=O)c2c(C(=O)N3CCCCCC3)c(C)n(C)c2C)c(Cl)c1 | – | 100 µM, 60 h | – | viability | 95.7% and 102% |

A few entries again:
| Compound | assay | conditions | scale | quantity | value |
| --- | --- | --- | --- | --- | --- |
| COc1cc(/C=C/C(=O)Oc2cc(C(F)(F)F)cc(C(F)(F)F)c2)ccc1OC(C)=O | cell growth or viability, MTT | 24 h | – | CC50 | 76.2 µM |
